Measured values collected from several papers.
Every numbered part comes from another study and shows a few of its results, in no order. Changes are numbered by the printed parent chain.

Study 1 — technique: competition protein-binding microarray; molecule type: double-stranded DNA, one strand shown; medium: in vitro; tested at: 2 µM; added: Pho4 competitor, 0.05 µM; reading: higher = stronger binding; quantity: fluorescence intensity; shared flanks, not repeated: … GTCTTGATTCGCTTGACGCTGCTG
Target: Centromere-binding protein 1, full length, His-tagged (CBF1, Saccharomyces cerevisiae, UniProt P17106, residues 1-351)
Sequence of UniProt P17106 (whole entry, looked up): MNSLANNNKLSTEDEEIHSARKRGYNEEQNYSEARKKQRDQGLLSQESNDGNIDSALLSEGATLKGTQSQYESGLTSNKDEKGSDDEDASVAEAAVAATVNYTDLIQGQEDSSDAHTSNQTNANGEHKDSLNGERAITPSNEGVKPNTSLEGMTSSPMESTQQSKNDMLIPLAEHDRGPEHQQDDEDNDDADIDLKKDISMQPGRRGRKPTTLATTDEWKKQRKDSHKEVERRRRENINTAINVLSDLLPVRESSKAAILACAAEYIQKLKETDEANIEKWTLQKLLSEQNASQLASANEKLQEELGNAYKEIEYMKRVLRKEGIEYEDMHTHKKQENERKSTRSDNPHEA
Notes: whole 60-bp probe, lowest competitor level
GAGGAGACACACCGTCACGTGTTTTGCCATTTTGTA: 3520 a.u.
AAATTACTAAGTTGTCACGATACTTACCCCGTATGA: 250 a.u.
AACAGATTCGGTGAGCTCGTGAGGTTTGAAGGCAGT: 94.5 a.u.
CTTCTGTAAATTTGTCACTGCACTTGACGCGCCCCG: 92.9 a.u.
AGGAGGGGAATTACCGGCGTGGCCGATATTCCTTAT: 84 a.u.
CGGGGTTAAGTTTGTCACCAGACTTGCTTGCAGCAG: 65.5 a.u.
GTCTTGTCTCATTGTCACGGCACTTTCCCCACTTCA: 129 a.u.
CTATACCTGACGGTCCACGGGGTTGGCAGCCCGGTC: 73.6 a.u.
GTCTTGTCTCATTGCTACGTGGGTGTCCCCACTTCA: 90.5 a.u.
AGGCACCATTCATTTGTCGTGGCCGCAATGTGTCCC: 55.7 a.u.
AAAGTGCCCCCCGGCGTCGTGATGGACCTGATTGGA: 108 a.u.
TCAAGAAGGCAGAGATACGTGTGGATTTTGCAGACA: 75.4 a.u.
GGTACGAGAATCGAACCCGTGTCCTCACCTTGGAAG: 94.9 a.u.
TTTTGTGAGCTTTCTTTTTACTCAAACGAACTGTGT: 86.2 a.u.
GCGTTTGCATAATCGCACGTCTTTCCATCGAATTAA: 97.1 a.u.
CTTTCCCGATCTTGAGAAGTGGGTGTAGCACATTTG: 64.4 a.u.
CTTTGAACATTAAGGCACATGACAGGCTATGAGCCC: 468 a.u.
TGACCGCTCCACCGGCATGCGTGTAGTCATCCCGCA: 49.8 a.u.
TTGTCGCTCGAAGGACACGTGTACTCATAATAACCC: 1430 a.u.
AACACACAGGGAAAGCACGATAAAAGGATACATAAG: 85.7 a.u.
CGGGGTTAAGTTTGGTGGGTGGGTGGCTTGCAGCAG: 72.3 a.u.

Study 2 — target: CCNA2, cyclin fold, Cln2 fusion (human); technique: yeast growth competition, sequencing; medium: yeast; notes: strong parent motif; relative to: not given; reading: higher = stronger binding; quantity: normalised enrichment score
Starting sequence: CDKN1C docking peptide (human); TSACRSLFGPVDH
F8L: 0.435
F8A: -0.217
R5A L7A: -0.543
H13A: 3
C4A: 2
S2A: 2.42
V11A: 3.69
R5K: 2.08
P10A: 2.58

Study 3 — technique: universal PBM; molecule type: double-stranded DNA, one strand shown; medium: in vitro; tested at: not given; reading: higher = stronger binding; quantity: E-score
Target: Sal-like protein 4, full length isoform B (SALL4, Homo sapiens, UniProt Q9UJQ4-2, residues 1-616)
Notes: 8-mer, flanks averaged, mean of replicates
AGGCTTAG: -0.0727
GCAGTAGA: -0.119
CAACACTA: 0.0546
CACCCTAA: -0.00205
GCATTGCC: -0.109
CAACTGTC: -0.0693
CTGACGGC: -0.256
ATCATGCC: 0.117
AAATTGAT: 0.287
AGCGTTAG: -0.0764
GAATACCA: 0.142
CAACTTCC: -0.168
ACTTTCAT: 0.266
GGACTACC: -0.211
ACAATAAG: 0.277
GCCTCTCC: -0.239
ACGTACAC: 0.123
AAAATTTA: 0.351
CACGTAAG: 0.0889
ACGTTAGA: 0.143
GACTACAA: 0.0546
GAGAGTCA: 0.0576
AGCCTAAG: -0.0998
ATCCCCTA: 0.12
CATTAGGC: -0.102

Study 4 — technique: protein binding microarray; molecule type: double-stranded DNA, one strand shown; medium: in vitro; tested at: not given; relative to: not given; reading: higher = stronger binding; quantity: E-score
Target: Histone acetyltransferase KAT6A, winged helix 1, GST fusion (KAT6A, Homo sapiens, UniProt Q92794, residues 1-85)
Notes: 8-mer, flanks averaged, mean of 2 arrays, mostly near background
Residues (chain): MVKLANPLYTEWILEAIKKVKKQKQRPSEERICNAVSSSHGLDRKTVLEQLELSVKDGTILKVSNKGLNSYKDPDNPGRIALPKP
GACGTCCC: 0.0296
ACCATGCT: -0.165
CCTGCCGA: -0.00969
CGCCGCCC: 0.411
AACATAAC: -0.0339
AATGACGG: 0.283
AACGATGG: -0.119
CGATAATC: 0.133
ATGCCGTC: 0.381
CGGCCTGA: 0.24
ATATTTGC: -0.0593
TGATGACA: -0.195
AAGGTGCG: 0.171
GCACCGCA: 0.243
CGCTAGCG: 0.333
AGAGATCG: -0.00477

Study 5 — technique: RNA Bind-n-Seq; molecule type: RNA; medium: in vitro; tested at: 365 nM; relative to: no-protein control; reading: higher = stronger binding; quantity: RBNS enrichment (R)
Target: RNA binding protein fox-1 homolog 2, RRM domain, GST-SBP tag (RBFOX2, Homo sapiens, UniProt O43251-10, residues 100-194)
Notes: natural RNA segment, single round, ends assumed
Shared flanks, not repeated: GGGAGUUCUACAGUCCGACGAUC … UGGAAUUCUCGGGUGCCAA
Target sequence (chain): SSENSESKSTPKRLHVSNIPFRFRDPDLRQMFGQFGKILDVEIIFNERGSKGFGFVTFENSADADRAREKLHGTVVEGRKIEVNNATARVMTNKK
UUCGCCCUGCCCUGCCCACCGGGGCUGAAAAUUCCUGAGGAAGAUGGUUACACCAUCACCCCCAACACCCUCAAGACCCUGGUGCUGGUAGGCUGUUUCACCGUCUUCUG: 0.265
AGCUCAACUACACAAUAUAAGGCAGACCAACCAAUACAUGCCUGUCAUUCACGUGUCCUUUCAUGUGCUUGCUUUAGGGAAACAGUCCUUCACAAGUCUGCCUUUCACCU: 0.336
GCACAGCCCACUUGGAUUUGUUUGUUUGGUUUUGCCUUGAGACUGGGUCUCACUAUACAGAGCAGCCUGCCUCCCCACUGCUGGGAUUAAGCUGAGAAGCACCAAGUCUG: 1.79
CUAUUUACAAAUUAGGAAAGCAACCUUUUGGUUUAUAUAUAUUUUUUUUAAUACCUCAGUGCUGCAAGUAUCACCAGAGAGGCUAUGGAAGAAUUUUUUUUUAAUUUAUU: 1.2
GACCCUGUAUGAAUAGUACCAAAGCAUUACCGCAUGGUAGAGAACACACUCGAUUAAAAAUGUUAAGCUAUCUGAAAAAUAAAAUGUGCAAGUCUUCAGGAUGGCACAAA: 2.39
GUGCCCUAGCUUUUCUUGCAACCAGAGUAUUUUUGUACAGAUUUGCUUUCUCUUACAAAAAGAAAAAAAAAAUCCUGUUGUAUUAACAUUUAAAAACAGAAUUGUGUUAU: 0.557
GCUGGGCUGAGAGUUCUGCAGUCUAGCUCUGACUUAGGUCAGGGGCCUGUUGGUCUCUCAUUGGACGUUUUUGGGUCUCACUCAUGCUUACUGAAACAUUGUGCCAAGAA: 0.255
UUCCUGGGCCAGCACUAGCCUUGAAUUUGCUCAUCCGCUUGAAACCUACUGGGGGAUGGGGCCCGUGCCUUUCUGACCUACCCUGUCCUAUAUGGUCCUCGUGUUGGCUU: 0.488
AACCACGCGGGGGCCUUGAGGGACGCUUUGUCUGUCGUGAUGGGGCAAGGGCACAAGUCCUGGAUGUUGUGUGUAUCGAGAGGCCAAAGGCUGGUGGCAAGUGCACGGGG: 1.59
UCAUGAGAAUGUGGAUGUACAAGUGUAAAAACAGGAAUGUACUAUCUCUCCUGAGCAGAUUGCCUGAUGGGAUUGACAAGGAGGCUCAUUGGGUUGUGGUUUGAACAUCG: 0.822
AAAAUCUAAAGAUUUUUUCACUUUCUUUGUAUUAUUAUAUAUGAGUAACUUUUGAUACCAGAAUAAAUCUUUCGUGUUUGUCACUAAAGCAUCGGAGUCUCGCUAGUUUC: 0.852
UAUAAAGAUGAAAUAUGAACUAUCUCAUUAGAAGUCAUAGUUGACCACAGACAUGUUAUUCUUCUGAAAGAGCCACAUUUUGGUUUUAUUUCUUGUCACAUGAUUUCUUU: 0.393

For quick reference, copied from above (study 1):
AAAGTGCCCCCCGGCGTCGTGATGGACCTGATTGGA: 108 a.u.
TCAAGAAGGCAGAGATACGTGTGGATTTTGCAGACA: 75.4 a.u.
GGTACGAGAATCGAACCCGTGTCCTCACCTTGGAAG: 94.9 a.u.
TTTTGTGAGCTTTCTTTTTACTCAAACGAACTGTGT: 86.2 a.u.
GCGTTTGCATAATCGCACGTCTTTCCATCGAATTAA: 97.1 a.u.
CTTTCCCGATCTTGAGAAGTGGGTGTAGCACATTTG: 64.4 a.u.
CTTTGAACATTAAGGCACATGACAGGCTATGAGCCC: 468 a.u.
TGACCGCTCCACCGGCATGCGTGTAGTCATCCCGCA: 49.8 a.u.
TTGTCGCTCGAAGGACACGTGTACTCATAATAACCC: 1430 a.u.
